Published values collected from several papers.
Numbered parts are unrelated; each lists some results of a single study. Changes are numbered by the printed parent chain.

Block 1
Target: ABI1, truncated, D143A, DHFR fusion (Arabidopsis thaliana)
Technique: DHFR PCA, deep sequencing
Medium: yeast
Setting: methotrexate growth selection, single substitutions
Together with: (+)-ABA 0.39 µM
Relative to: wild-type fitted maximum
Reading: higher = stronger binding
Parent: PYL1, truncated, DHFR fusion (Arabidopsis thaliana); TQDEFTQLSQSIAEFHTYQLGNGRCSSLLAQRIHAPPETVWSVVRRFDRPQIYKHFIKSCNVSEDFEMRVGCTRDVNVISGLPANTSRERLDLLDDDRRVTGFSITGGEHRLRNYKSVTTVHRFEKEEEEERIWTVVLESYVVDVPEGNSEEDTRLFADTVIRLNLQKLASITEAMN; partner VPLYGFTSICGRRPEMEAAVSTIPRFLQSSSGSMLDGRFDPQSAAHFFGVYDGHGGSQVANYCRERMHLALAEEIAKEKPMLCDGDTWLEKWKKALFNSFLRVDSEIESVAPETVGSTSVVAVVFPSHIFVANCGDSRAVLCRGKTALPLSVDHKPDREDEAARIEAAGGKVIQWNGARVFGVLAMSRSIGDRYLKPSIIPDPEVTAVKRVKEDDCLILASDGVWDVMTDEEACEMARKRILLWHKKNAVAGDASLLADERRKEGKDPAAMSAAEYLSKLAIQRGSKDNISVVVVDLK
| Substitution | relative binding score [%] |
| --- | --- |
| E131I | 27.4 |
| R32A | 27.7 |
| V136L | 33.1 |
| D153Y | 0.372 |
| E130K | 53.1 |
| Q31R | 19.6 |
| R74A | -4.33 |
| E125F | 40.9 |
| G71Y | -5.29 |
| I12P | 1.34 |
| D144N | 4.03 |
| L28N | -8.11 |
| I33E | -1.98 |
| G23I | -5.57 |
| T73L | 31.1 |
| T160K | 6.4 |
| E152S | 22.9 |
| I12W | 1.02 |
| L166G | 4.44 |
| I162Q | 18.5 |
| Y53V | -5.18 |
| A170C | 18.2 |
| D75L | 58.5 |
| G23K | 27.9 |
| P36K | 29.9 |

Block 2
Target: JUN, bZIP domain (human)
Technique: DHFR protein complementation
Medium: yeast
Setting: single substitutions, most at no-binding floor
Relative to: wild-type JUN-FOS pair
Reading: higher = stronger binding
Parent: JUN, bZIP domain (human); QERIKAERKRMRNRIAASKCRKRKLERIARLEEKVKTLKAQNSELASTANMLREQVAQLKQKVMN; partner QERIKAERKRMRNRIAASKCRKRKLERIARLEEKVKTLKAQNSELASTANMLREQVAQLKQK
| Substitution | binding fitness [natural log] |
| --- | --- |
| E44G | -0.808 |
| E33G | -0.545 |
| A49L | -0.446 |
| A46T | -0.0655 |
| L52M | -0.967 |
| E33L | -0.312 |
| A57K | -0.137 |
| S47C | -0.229 |
| S43R | -0.0675 |
| A57S | -0.284 |
| K39C | -0.465 |
| S43H | -0.17 |
| L31W | -1.14 |
| E44S | -0.483 |
| R30D | -0.129 |
| A49V | 0.149 |
| S43Y | -0.294 |
| N42R | -0.72 |
| K39W | -0.888 |
| S43C | -0.284 |
| S43K | -0.0218 |

Block 3
Target: CCNB3, cyclin fold, Cln2 fusion (human)
Technique: yeast growth competition, sequencing
Medium: yeast
Setting: weak parent motif
Relative to: not given
Reading: higher = stronger binding
Parent: CABLES2 docking peptide (human); ICAKRSLCAAFSV
| Substitution | normalised enrichment score |
| --- | --- |
| L7A | -0.301 |
| C8A | 0.448 |
| S6A | 0.553 |
| V13A | 0.405 |
| R5A | 0.192 |

Block 4
Target: RING finger protein unkempt homolog, zinc fingers 1-6, GST-SBP tag (UNK, Homo sapiens, UniProt Q9C0B0, residues 30-357)
Chain of UniProt Q9C0B0 (30-357, looked up): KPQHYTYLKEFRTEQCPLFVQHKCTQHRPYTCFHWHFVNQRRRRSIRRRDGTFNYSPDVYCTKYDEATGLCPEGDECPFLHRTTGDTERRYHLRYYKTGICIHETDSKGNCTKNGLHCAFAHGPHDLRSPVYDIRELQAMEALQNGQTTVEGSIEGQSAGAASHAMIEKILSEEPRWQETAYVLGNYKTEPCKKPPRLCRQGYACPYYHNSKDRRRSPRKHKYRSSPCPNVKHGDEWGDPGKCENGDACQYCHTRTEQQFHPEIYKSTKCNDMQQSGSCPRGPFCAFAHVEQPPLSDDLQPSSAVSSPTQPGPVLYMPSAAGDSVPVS
Technique: RNA Bind-n-Seq
Molecule type: RNA
Medium: in vitro
Concentration: not given
Setting: RNA with constant flanks, human and mouse sites, ends assumed
Relative to: input RNA pool
Reading: higher = stronger binding
All sequences stand within: GGGAGUUCUACAGUCCGACGAUC … CAACAGAGGAUUGAGCAUCA
| Strand | bound/input enrichment |
| --- | --- |
| AAUGCACAUACUGACUGGUUAUUGGAUGUUUAUGCUAGGAAUAUAAAGACAUUAAAGAAGCUCCCAAGUGUUCUUAAAGAGCUGCCUGAGAAUCUAAAUGUAUGUCCUGGAGUGCAUACU | 0.13 ratio |
| AAGUCUUCUACCAUUACUGUAGACCAAAUGAAAAGAGGUUAUGAGAGAAUUUACAAUGAAAUUCCGGACAUUAAUCUGGAUGUCCCACAUUCAUACUCUGUGCUGGAGCGGUUUGUAGAA | 0.628 ratio |
| AUUUUGGAAUCAGUUCUUAUAAACAGCUCGAUUCAGUUUUAGCUAAAUUUAUAGUUUAGGUAGUAUGUUACAUUUGAAUUUUUGUCUUAAGAAAAGUUGACUGUUCAGAUAUUUUUCUAC | 4.49 ratio |
| AAGAAAGAAAAGGAACAAGCAAAGCAGCUACGAAAGAGAAAUUGGGAAGCCUUAAAAAACAUACUUGACAAUAUGGCUAACGUUACAUACUCUACCACUUGGUCUGAAGCCCAGCAGUAU | 0.308 ratio |
| GACCUGAAGAAGCUCCGGGUGAAAGAGCUGAAGAAGAUCCUGGACGACUGGGGGGAGAUGUGCAAAGGCUGUGCAGAAAAGUCUGACUAUAUCCGGAAGAUAAAUGAACUGAUGCCUAAA | 0.244 ratio |
| GGAUUGUAGAUUUUUGCUUUUUCUUUUUGUUUUUAAAACUUAUUCCAAUUGCUAAAUUGGUAGUUUUUCAGUCUUUAUAAAUACAGGAUUAAAAAUAUAUAUACAGUUAUAUGAAAUGUU | 0.795 ratio |
| UUGGUGGCUAUUUUUAAACCCAGCUGUAUUAAAAGGUGAUGUUGAAUUUUACGACACCCCUACCAUGGCCUGCUUUUAAAUUCGGGGCUUCUAAACCUGGUUGUACUUUUUAAAUUAUAU | 0.345 ratio |
| GAGUCCAGCAAGGCCAGAAUGGAGUCUAUGAAUCGGCCCUACACUUCACUUGUGCCCCCUUUAUCCCCGCAACCUAAGAUAGUCACCCCCUACACUGCUUCACAGCCUUCACCACCUCUA | 0.684 ratio |

Block 5
Target: Fragile X messenger ribonucleoprotein 1, C-terminal low-complexity region (Fmr1, Mus musculus, UniProt P35922)
Technique: RNA Bind-n-Seq
Molecule type: RNA
Medium: in vitro
Concentration: 200 nM
Setting: whole 134-nt RNA, ends assumed
Together with: 150 mM KCl
Relative to: input library
Reading: higher = stronger binding
All sequences stand within: GGGAGUUCUACAGUCCGACGAUC … UGGAAUUCUCGGGUGUCAAGG
| Strand | log2 enrichment |
| --- | --- |
| AGUCCUGUGCUACACAUCGUAUGUACCGAAUCGGUUUUUUUGGUUUGGUUUUUUUGGAAAGUAUUAUGUUACGCCGUUCGGAUCUGCACU | -0.966 |
| UCCUGUGCUACACAUCGUAUGUACCGAAUCGGCCCCCCCGGCCCCCCCGGGCCCCCCCGGAAAGUAUUAUGUUACGCCGUUCGGAUCUGC | 0.287 |
| CAAGUCCUGUGCUACACAUCGUAUGUACCGAAUCGGUUUGGUUUUUGGUUUUUGGAAAGUAUUAUGUUACGCCGUUCGGAUCUGCACUUC | -0.499 |
| GCAGGAAGUAAAAACAAAUGGAAAUGCUUCGGAUAGUGGCAGGGGUGGGGGUUGCUACGGAAAGGGUGGGAUGGGAGUGGGUAAAGAGUU | 0.0238 |
| CCUGUGCUACACAUCGUAUGUACCGAAUCGGGGUUUUUUUGGGGUGGGGUUUUUUUGGGGAAAGUAUUAUGUUACGCCGUUCGGAUCUGC | 0.515 |
| UAACUUUAGAGGAGGAUCUGAUGGAUAUGGCAGUGGACUUGGAUUUGGGGAUGGCUAUAAUGGGUAUGGAGGAGGACCUGGAGGUGGCAA | 0.331 |
| UCAAGUCCUGUGCUACACAUCGUAUGUACCGAAUCGGAAAGGAAAGGAAAGGGGAAAGUAUUAUGUUACGCCGUUCGGAUCUGCACUUCC | -0.5 |
| ACCAUGCAGGUGGGCAUCUUUGGGAAGUGGGGCAAGGGGGGGAUAGGGCGGGGGGUAACACUUUGGGAACAGGUGGUCCCAGGUCGUUUC | 0.781 |
| UGUGCUACACAUCGUAUGUACCGAAUCGGGGUUUUUUUGGGUUUUUUUGGGUUUUUUUGGGGAAAGUAUUAUGUUACGCCGUUCGGAUCU | 0.197 |

A few entries again (block 1):
| Substitution | relative binding score [%] |
| --- | --- |
| I12P | 1.34 |
| Y53V | -5.18 |
| I12W | 1.02 |
| I162Q | 18.5 |
